# Measured values from different studies.
# Numbers after ± are the reported error.
# Sctr: Sctr (Rattus norvegicus, UniProt P23811)
# Sequence of UniProt P23811 (whole entry, looked up): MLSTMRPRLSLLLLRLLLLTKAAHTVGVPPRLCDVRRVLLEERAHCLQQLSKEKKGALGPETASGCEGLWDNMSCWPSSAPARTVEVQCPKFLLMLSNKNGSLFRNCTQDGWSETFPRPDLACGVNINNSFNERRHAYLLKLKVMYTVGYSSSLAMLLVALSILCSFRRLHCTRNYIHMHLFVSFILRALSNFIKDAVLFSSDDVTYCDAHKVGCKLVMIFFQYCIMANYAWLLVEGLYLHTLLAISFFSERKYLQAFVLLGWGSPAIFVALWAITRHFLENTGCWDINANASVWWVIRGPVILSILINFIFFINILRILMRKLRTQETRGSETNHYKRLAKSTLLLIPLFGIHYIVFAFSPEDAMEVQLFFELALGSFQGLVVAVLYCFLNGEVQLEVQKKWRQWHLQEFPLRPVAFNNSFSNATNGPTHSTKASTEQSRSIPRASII
# Sequence of UniProt P43116 (whole entry, looked up): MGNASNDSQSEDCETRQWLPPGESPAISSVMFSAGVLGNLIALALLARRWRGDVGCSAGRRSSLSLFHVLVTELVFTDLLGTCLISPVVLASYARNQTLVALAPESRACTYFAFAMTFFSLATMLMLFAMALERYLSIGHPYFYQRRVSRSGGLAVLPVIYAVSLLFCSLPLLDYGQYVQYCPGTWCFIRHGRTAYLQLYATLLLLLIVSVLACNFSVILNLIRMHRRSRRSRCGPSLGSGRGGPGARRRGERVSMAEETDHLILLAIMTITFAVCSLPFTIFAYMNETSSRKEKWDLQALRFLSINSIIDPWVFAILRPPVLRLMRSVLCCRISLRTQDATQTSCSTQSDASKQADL
# Sequence of UniProt P30550 (whole entry, looked up): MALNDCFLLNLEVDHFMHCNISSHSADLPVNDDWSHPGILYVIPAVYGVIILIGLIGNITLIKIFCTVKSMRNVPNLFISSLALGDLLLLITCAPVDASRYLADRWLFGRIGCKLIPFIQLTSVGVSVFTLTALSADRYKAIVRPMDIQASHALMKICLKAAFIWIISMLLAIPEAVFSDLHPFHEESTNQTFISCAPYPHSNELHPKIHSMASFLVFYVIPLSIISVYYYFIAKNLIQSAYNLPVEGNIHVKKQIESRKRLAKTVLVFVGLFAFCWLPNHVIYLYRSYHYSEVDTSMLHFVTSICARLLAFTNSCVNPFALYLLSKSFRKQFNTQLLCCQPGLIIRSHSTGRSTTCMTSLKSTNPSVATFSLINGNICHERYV
# Sequence of UniProt O95838 (whole entry, looked up): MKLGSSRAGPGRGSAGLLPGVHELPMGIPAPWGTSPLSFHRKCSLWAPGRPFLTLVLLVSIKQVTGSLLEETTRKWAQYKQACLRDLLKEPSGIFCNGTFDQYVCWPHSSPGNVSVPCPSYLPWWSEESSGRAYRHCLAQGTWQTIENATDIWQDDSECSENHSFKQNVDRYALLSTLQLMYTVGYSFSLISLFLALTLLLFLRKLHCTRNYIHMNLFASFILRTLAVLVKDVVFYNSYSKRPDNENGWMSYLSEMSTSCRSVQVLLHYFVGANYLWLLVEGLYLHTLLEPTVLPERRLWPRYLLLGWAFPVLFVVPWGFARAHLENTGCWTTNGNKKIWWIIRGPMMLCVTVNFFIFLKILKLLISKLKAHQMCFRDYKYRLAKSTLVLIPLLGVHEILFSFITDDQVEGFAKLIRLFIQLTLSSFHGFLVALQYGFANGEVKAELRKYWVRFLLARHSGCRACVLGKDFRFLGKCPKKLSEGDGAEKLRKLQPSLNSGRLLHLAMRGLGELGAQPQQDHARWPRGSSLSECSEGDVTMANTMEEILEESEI
# Sequence of UniProt P25929 (whole entry, unmodified, looked up): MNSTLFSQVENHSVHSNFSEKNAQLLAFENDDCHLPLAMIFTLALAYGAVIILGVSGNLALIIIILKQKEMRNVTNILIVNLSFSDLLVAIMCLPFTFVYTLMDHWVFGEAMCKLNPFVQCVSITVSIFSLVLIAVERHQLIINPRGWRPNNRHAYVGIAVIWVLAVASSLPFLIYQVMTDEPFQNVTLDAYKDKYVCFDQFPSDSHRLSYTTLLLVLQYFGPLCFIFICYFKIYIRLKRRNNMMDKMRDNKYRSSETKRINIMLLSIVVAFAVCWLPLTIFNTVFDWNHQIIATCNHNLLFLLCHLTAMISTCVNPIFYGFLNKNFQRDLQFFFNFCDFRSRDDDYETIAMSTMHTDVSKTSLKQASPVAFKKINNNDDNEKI
# Sequence of UniProt O15552 (whole entry, looked up): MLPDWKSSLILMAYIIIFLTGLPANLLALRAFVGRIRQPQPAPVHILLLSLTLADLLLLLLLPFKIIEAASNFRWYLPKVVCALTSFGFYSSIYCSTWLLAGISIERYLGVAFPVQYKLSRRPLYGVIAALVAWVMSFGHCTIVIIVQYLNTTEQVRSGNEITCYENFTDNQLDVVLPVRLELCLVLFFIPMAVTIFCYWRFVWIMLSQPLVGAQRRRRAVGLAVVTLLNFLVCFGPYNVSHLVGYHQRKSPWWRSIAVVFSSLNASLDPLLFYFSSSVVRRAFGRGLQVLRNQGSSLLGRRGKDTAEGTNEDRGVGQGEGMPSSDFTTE
# Sequence of UniProt P32241 (whole entry, looked up): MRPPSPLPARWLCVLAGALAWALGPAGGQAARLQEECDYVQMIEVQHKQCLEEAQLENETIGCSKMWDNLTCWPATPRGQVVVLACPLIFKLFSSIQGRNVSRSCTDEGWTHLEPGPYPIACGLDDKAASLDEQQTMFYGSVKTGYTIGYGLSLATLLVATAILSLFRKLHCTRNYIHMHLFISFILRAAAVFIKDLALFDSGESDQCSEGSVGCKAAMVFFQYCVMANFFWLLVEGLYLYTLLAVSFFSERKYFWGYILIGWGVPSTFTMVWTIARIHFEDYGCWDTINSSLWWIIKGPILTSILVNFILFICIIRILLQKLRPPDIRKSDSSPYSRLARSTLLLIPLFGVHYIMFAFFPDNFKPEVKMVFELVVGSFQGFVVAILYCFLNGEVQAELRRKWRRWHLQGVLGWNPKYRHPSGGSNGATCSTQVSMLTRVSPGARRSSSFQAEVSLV
# Sequence of UniProt P41212 (whole entry, looked up): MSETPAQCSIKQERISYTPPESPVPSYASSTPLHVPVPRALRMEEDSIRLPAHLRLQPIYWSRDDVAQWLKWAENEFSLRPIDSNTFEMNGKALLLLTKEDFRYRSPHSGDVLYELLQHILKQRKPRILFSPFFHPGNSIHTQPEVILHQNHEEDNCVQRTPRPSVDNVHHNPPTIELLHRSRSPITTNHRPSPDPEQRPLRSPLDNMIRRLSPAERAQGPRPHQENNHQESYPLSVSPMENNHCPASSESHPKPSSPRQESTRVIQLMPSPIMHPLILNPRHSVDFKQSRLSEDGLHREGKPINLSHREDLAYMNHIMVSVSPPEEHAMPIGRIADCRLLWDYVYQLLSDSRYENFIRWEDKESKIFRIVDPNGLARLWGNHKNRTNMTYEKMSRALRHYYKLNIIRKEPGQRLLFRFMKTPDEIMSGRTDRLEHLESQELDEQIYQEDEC
# Sequence of UniProt Q1MX30 (whole entry, looked up): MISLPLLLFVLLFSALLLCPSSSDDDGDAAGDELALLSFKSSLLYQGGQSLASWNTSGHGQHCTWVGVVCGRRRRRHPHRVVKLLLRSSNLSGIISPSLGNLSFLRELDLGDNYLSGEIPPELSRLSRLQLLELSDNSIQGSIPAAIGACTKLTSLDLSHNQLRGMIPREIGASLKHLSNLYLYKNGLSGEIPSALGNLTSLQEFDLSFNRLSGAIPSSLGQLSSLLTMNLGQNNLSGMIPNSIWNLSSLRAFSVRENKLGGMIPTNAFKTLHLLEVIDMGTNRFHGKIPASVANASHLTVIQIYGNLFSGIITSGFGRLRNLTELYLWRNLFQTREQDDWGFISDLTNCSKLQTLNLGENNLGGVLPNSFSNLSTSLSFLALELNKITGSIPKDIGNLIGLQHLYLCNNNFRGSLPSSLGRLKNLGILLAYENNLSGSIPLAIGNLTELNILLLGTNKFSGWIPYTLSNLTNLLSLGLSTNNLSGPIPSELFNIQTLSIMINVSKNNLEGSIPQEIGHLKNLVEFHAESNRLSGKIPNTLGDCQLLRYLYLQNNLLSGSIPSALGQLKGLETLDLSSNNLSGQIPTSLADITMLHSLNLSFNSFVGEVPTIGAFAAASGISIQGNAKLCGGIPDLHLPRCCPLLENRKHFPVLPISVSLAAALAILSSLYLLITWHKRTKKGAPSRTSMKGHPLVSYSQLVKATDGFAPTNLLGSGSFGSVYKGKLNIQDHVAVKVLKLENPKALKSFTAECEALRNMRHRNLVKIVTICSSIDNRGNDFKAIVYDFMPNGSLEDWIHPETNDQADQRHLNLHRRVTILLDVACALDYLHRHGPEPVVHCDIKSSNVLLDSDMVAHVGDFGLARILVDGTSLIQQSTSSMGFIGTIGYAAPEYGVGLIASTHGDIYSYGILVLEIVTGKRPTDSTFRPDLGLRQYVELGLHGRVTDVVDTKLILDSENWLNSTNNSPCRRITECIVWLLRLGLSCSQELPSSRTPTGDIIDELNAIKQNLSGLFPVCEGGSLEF
# Sequence of UniProt P17302 (whole entry, looked up): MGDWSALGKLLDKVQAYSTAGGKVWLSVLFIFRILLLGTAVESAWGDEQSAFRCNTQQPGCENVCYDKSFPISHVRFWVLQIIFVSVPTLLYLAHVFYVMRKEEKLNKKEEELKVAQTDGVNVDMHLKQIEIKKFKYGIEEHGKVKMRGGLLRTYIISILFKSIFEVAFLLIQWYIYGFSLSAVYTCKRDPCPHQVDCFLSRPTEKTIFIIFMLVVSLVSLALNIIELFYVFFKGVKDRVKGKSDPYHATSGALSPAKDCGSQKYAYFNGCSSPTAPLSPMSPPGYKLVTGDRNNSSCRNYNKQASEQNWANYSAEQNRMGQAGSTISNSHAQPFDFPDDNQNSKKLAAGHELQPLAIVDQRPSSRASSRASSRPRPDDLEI
SMILES,target or system,test,system,setting,how to read,measurement,result
CC(C)C[C@H](NC(=O)[C@H](CCCNC(=N)N)NC(=O)[C@H](CCC(N)=O)NC(=O)[C@H](CC(=O)O)NC(=O)[C@H](CC(C)C)NC(=O)[C@@H]1CCCN1C(=O)[C@H](CCC(=O)O)NC(=O)[C@@H]1CCCN1C(=O)[C@H](CCCNC(=N)N)NC(=O)CNC(=O)[C@@H](N)CCCCN)C(=O)N[C@@H](Cc1c[nH]c2ccccc12)C(=O)N[C@@H](CCCCN)C(=O)N[C@@H](Cc1c[nH]cn1)C(=O)N[C@H](C(=O)NCC(=O)NCC(=O)NCC(=O)N[C@@H](CC(=O)O)C(=O)N[C@@H](Cc1ccc(OS(=O)(=O)O)cc1)C(=O)N1CCC[C@H]1C(=O)N1CCC[C@H]1C(=O)N1CCC[C@H]1C(=O)NCC(=O)N[C@@H](C)C(=O)N[C@@H](CC(N)=O)C(=O)N1CCC[C@H]1C(=O)N[C@@H](CCCCN)C(=O)N[C@@H](Cc1c[nH]cn1)C(=O)N[C@@H](CC(=O)O)C(=O)N1CCC[C@H]1C(=O)N1CCC[C@H]1C(=O)N1CCC[C@H]1C(=O)N[C@@H](CCCNC(=N)N)C(=O)N[C@@H](CC(N)=O)C(=O)N1CCC[C@H]1C(=O)NCC(=O)N[C@@H](Cc1c[nH]cn1)C(=O)N[C@@H](Cc1c[nH]cn1)C(=O)O)C(C)C,"Receptor kinase-like protein Xa21 (XA21, Oryza sativa subsp. indica, UniProt Q1MX30)","ROS production, agonist, L-012 chemiluminescence","Oryza sativa, Kitaake Ubi::XA21, leaves",3 h,,EC50,~0.07 µM
CCC(=O)NCCNC(=O)/N=C(/N)NCCC[C@@H](NC(=O)C(c1ccccc1)c1ccccc1)C(=O)NCc1ccc(O)cc1,"NPY1R (Homo sapiens, UniProt P25929, T280A)",antagonist,human cells,,,Kb,0.00086 µM
COc1cc(CNC(=O)C[C@H](C)CCC=C(C)C)ccc1OCc1cn(-c2cccc(C(F)(F)F)c2)nn1,OVCAR-3 ovarian cancer cells,SRB,,"10 µM, 48 h",,growth percent,103%
O=C(O)/C=C/c1cccc(NC(=O)c2cc(-c3ccc(F)cc3)ccc2F)c1,"PTGER2 (Homo sapiens, UniProt P43116)","calcium signal, agonist, fluorescence",,,,EC50,0.0501 µM
CC(C)C[C@H](NC(=O)CNC(=O)[C@H](CCC(N)=O)NC(=O)[C@H](CC(C)C)NC(=O)[C@H](CC(C)C)NC(=O)[C@H](CCCNC(=N)N)NC(=O)[C@H](CCC(N)=O)NC(=O)[C@H](CC(C)C)NC(=O)[C@H](CCCNC(=N)N)NC(=O)[C@H](C)NC(=O)[C@H](CO)NC(=O)[C@H](CC(=O)O)NC(=O)[C@H](C)NC(=O)[C@H](CC(C)C)NC(=O)[C@H](CCCNC(=N)N)NC(=O)[C@H](CO)NC(=O)[C@H](CC(C)C)NC(=O)[C@H](CCC(=O)O)NC(=O)[C@H](CO)NC(=O)[C@@H](NC(=O)[C@H](Cc1ccccc1)NC(=O)[C@@H](NC(=O)CNC(=O)[C@H](CC(=O)O)NC(=O)[C@H](CO)NC(=O)[C@@H](N)Cc1c[nH]cn1)[C@@H](C)O)[C@@H](C)O)C(=O)N[C@H](C(N)=O)C(C)C,Sctr,"cAMP production, agonist",CHO-SecR,"30 min, 37 °C, added: 1 mM IBMX",,EC50,0.0002 ± 7e-05 µM
CC[C@H](C)[C@H](NC(=O)[C@H](CCC(=O)O)NC(=O)[C@@H](NC(=O)[C@H](CCC(N)=O)NC(=O)[C@@H](N)CCCCN)[C@@H](C)CC)C(=O)N[C@@H](CCCCN)C(=O)N[C@@H](CCCCN)C(=O)N[C@@H](Cc1ccccc1)C(=O)N[C@@H](CCCCN)C(=O)O,"Gap junction alpha-1 protein, C-terminal tail 255-382 (GJA1, Homo sapiens, UniProt P17302)","binding, SPR",,Cx43 C-terminal tail,,EC50,~2.5 µM
CC[C@H](C)[C@H](NC(=O)CNC(=O)[C@H](CC(=O)O)NC(=O)[C@H](CO)NC(=O)Cc1cccnc1)C(=O)N[C@@H](Cc1ccccc1)C(=O)N[C@H](C(=O)N[C@@H](CC(=O)O)C(=O)N[C@@H](CO)C(=O)N[C@@H](Cc1ccc(O)cc1)C(=O)N[C@@H](CO)C(=O)N[C@@H](CCCNC(=N)N)C(=O)N[C@@H](Cc1ccc(O)cc1)C(=O)N[C@@H](CCCNC(=N)N)C(=O)N[C@@H](CCCCN)C(=O)N[C@@H](CCC(N)=O)C(=O)N[C@@H](CCSC)C(=O)N[C@@H](C)C(=O)N[C@H](C(=O)N[C@@H](CCCCN)C(=O)N[C@@H](CCCCN)C(=O)N[C@@H](C)C(=O)N[C@@H](CC(C)C)C(=O)N[C@@H](C)C(=O)N[C@@H](C)C(=O)N[C@H](C(=O)N[C@@H](CC(C)C)C(=O)NCC(=O)N[C@@H](CCCCN)C(=O)N[C@@H](CCCNC(=N)N)C(=O)N[C@@H](Cc1ccc(O)cc1)C(=O)N[C@@H](CCCCN)C(=O)N[C@@H](CCC(N)=O)C(=O)N[C@@H](CCCNC(=N)N)C(=O)N[C@H](C(=O)N[C@@H](CCCCN)C(=O)N[C@@H](CC(N)=O)C(=O)N[C@@H](CCCCN)C(N)=O)C(C)C)C(C)C)C(C)C)[C@@H](C)O,"VIPR1 (Homo sapiens, UniProt P32241)","cAMP, agonist, radiometric",,,,EC50,0.199 µM
CC(C)C[C@H](NC(=O)CNC(=O)[C@H](CCC(N)=O)NC(=O)[C@H](CC(C)C)NC(=O)[C@H](CC(C)C)NC(=O)[C@H](CCCNC(=N)N)NC(=O)[C@H](CCC(N)=O)NC(=O)[C@H](CC(C)C)NC(=O)[C@H](CCCNC(=N)N)NC(=O)[C@H](C)NC(=O)[C@H](CO)NC(=O)[C@H](CC(=O)O)NC(=O)[C@H](CCC(N)=O)NC(=O)[C@H](CC(C)C)NC(=O)[C@H](CCCNC(=N)N)NC(=O)[C@H](CO)NC(=O)[C@H](CC(C)C)NC(=O)[C@H](CCC(=O)O)NC(=O)[C@H](CO)NC(=O)[C@@H](NC(=O)[C@H](Cc1ccccc1)NC(=O)[C@@H](NC(=O)CNC(=O)[C@H](CC(=O)O)NC(=O)[C@H](C)NC(=O)[C@@H](N)Cc1c[nH]cn1)[C@@H](C)O)[C@@H](C)O)C(=O)N[C@H](C(N)=O)C(C)C,Sctr,"cAMP production, agonist",CHO-SecR,"30 min, 37 °C, added: 1 mM IBMX",,EC50,0.0003 ± 0.0001 µM
CSCC(=O)O,"FFAR2 (Homo sapiens, UniProt O15552)",agonist,,,,EC50,2950 µM
COc1cc(CNC(=O)C[C@H](C)CCC=C(C)C)ccc1OCc1cn(-c2cccc(Cl)c2)nn1,UACC-257 melanoma cells,SRB,,"10 µM, 48 h",,growth percent,72.1%
CC[C@H](C)[C@H](NC(=O)[C@H](Cc1ccccc1)NC(=O)[C@H](CC(=O)O)NC(=O)[C@H](CCCNC(=N)N)NC(=O)[C@H](C)NC(=O)[C@H](C)NC(=O)[C@H](CC(C)C)NC(=O)[C@H](CC(N)=O)NC(=O)[C@H](CC(=O)O)NC(=O)[C@H](CC(C)C)NC(=O)[C@@H](NC(=O)[C@@H](NC(=O)[C@H](CC(N)=O)NC(=O)[C@H](CCSC)NC(=O)[C@H](CCC(=O)O)NC(=O)[C@H](CC(=O)O)NC(=O)[C@H](CO)NC(=O)[C@H](Cc1ccccc1)NC(=O)[C@H](CO)NC(=O)[C@H](C)NC(=O)[C@H](CC(=O)O)NC(=O)[C@H](C)NC(=O)[C@@H](N)Cc1c[nH]cn1)[C@@H](C)O)[C@@H](C)CC)C(=O)N[C@@H](CC(N)=O)C(=O)N[C@@H](Cc1c[nH]c2ccccc12)C(=O)N[C@@H](CC(C)C)C(=O)N[C@H](C(=O)N[C@@H](CCC(N)=O)C(=O)N[C@H](C(=O)N[C@@H](CCCCN)C(=O)N[C@H](C(=O)N[C@H](C(=O)N[C@@H](CC(=O)O)C(N)=O)[C@@H](C)O)[C@@H](C)CC)[C@@H](C)O)[C@@H](C)CC,"GLP2R (Homo sapiens, UniProt O95838)",agonist,,,,EC50,0.00016 µM
CCC(=O)Nc1cccc(CN2C(=O)N(c3c(Cl)c(OC)cc(OC)c3Cl)Cc3cnc(NCCCCN(CC)CC)nc32)c1,"FGFR3/Transcription factor ETV6 (Homo sapiens, UniProt P22607+P41212)","cell proliferation, MTT",Ba/F3,48 h,,EC50,1.04 µM
CCCC[C@H](NC(=O)[C@H](Cc1ccccc1)NC(=O)[C@H](Cc1c[nH]cn1)NC(=O)CCNC(=O)[C@@H](NC(=O)[C@H](C)NC(=O)[C@H](Cc1c[nH]c2ccccc12)NC(=O)[C@H](CC(N)=O)NC(=O)[C@H](N)Cc1ccc(O)cc1)C(C)C)C(N)=O,"GRPR (Homo sapiens, UniProt P30550)","inositol phosphate generation, agonist",BALB/3T3 transfected with human GRPR,"45 min, 37 °C",baseline: 1 µM GRP,EC50,0.00085 ± 2e-05 µM

# A few entries again:
SMILES,target or system,test,system,setting,how to read,measurement,result
COc1cc(CNC(=O)C[C@H](C)CCC=C(C)C)ccc1OCc1cn(-c2cccc(Cl)c2)nn1,UACC-257 melanoma cells,SRB,,"10 µM, 48 h",,growth percent,72.1%
